Measured values gathered from unrelated publications.
Parts stem from different laboratories: compare values within a part only.

Block 1
Target: RING finger protein unkempt homolog, zinc fingers 1-6, GST-SBP tag (UNK, Homo sapiens, UniProt Q9C0B0, residues 30-357)
Method: RNA Bind-n-Seq
Form: RNA
Sample: in vitro
Tested at: not given
Notes: RNA with constant flanks, human-mouse chimeric sites, ends assumed
Relative to: input RNA pool
Reading: higher = stronger binding
Endpoint: bound/input enrichment
Shared flanks, not repeated: GGGAGUUCUACAGUCCGACGAUC … CAACAGAGGAUUGAGCAUCA
Construct (chain): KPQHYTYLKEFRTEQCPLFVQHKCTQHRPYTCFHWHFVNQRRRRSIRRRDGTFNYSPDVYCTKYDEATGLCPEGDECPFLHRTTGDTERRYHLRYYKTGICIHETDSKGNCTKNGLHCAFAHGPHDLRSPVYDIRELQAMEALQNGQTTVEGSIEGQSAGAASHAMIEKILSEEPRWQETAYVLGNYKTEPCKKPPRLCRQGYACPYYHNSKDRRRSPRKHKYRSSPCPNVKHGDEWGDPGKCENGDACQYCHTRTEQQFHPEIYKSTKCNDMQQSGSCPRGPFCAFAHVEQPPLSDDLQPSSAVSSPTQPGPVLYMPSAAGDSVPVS
Oligonucleotide = AGAGAAAUGAGAAAGAAUCUUACACAAGAUGAGAUGCAAAGAAUGUCUACUAGAGUCCUUUUAGCCACUCUUUCCAUUCCUAUUACUCCUGAGCGAACUGAUAUUGCUCGACUUUUGGAU; result = 0.0915 ratio
Oligonucleotide = GGAAGUACAUUAAUGGAGAUUGAUGGUGACAAAGGCAAGCAGGGCGGUCCCACCUACUACAUAGACACCAAUGCCCUCCGCGUGCCCAGGGAGAACAUGGAGGCCAUCUCACCACUCAAG; result = 0.327 ratio
Oligonucleotide = GGGGAGAAACCUUAUGAGUGUGUGCAGUGUGGGAAAUCCUACAGUCAAAGCUCAAAUCUCUUCAGACAUCAGAGACGACACAAUGCAGAAAAACUUUUGAAUGUUGUGAAGGUUUAAGAA; result = 0.126 ratio
Oligonucleotide = CAGACUGUGUCAUACUUUUUAGACAUUCACAUCAGACUUACAGAGCACCUGGCCACAUUCUAGGUUUGUGUUAUUUCUAAGCCUUUUAUAUGAUCAAAUGAGAACACUGCUUAACUAAUG; result = 0.505 ratio
Oligonucleotide = AAAGAGAAACUAAAGCAAACUGAUUGAAAGAGGAUUGGCAAAGAGAAUUUCAUAGAGAAACUAGGAUUUAUUAGCAAACAUGAGUUAUAUUCCAGAGCGUCUCAGAAACCCCAGCCAAAC; result = 4.46 ratio
Oligonucleotide = GAACCUGCUCUCUCUGAUGAAGAUGAGGAAGACAAUGAUGAUGUUGAACCCAUUUCUGAAUUUCGAUUUGUGCCCAGUGAUAAAUCAGCAUUGGAGGCGAUGUUCACAGCAAUGUGUGAG; result = 0.26 ratio
Oligonucleotide = ACCUCCCCCUCCCGCCUCACCCCACCCCCGCUUUUUGAAAGUGUGUUGGCGUUUCUUUUUUUUAGAAAUACAAAGUGAUUACAGUUUCCCCCGCAAGGGUCUAUCGAAGGGCUUGACGGA; result = 0.661 ratio
Oligonucleotide = AAAGCCCUUGAAGAAAAAAAAAACUCGAACAGAUUUGACAAGGGUAGCCAGCUUGGAGUCUAGCAACUUGCCAAUGUGUUUACCAAUCUGGGGGCUUUGUUUUUCUUUCUUCUUUCAAAU; result = 0.301 ratio

Block 2
Target: Ras GTPase-activating protein-binding protein 1, full length (G3BP1, Homo sapiens, UniProt Q13283)
Sequence of UniProt Q13283 (whole entry, looked up): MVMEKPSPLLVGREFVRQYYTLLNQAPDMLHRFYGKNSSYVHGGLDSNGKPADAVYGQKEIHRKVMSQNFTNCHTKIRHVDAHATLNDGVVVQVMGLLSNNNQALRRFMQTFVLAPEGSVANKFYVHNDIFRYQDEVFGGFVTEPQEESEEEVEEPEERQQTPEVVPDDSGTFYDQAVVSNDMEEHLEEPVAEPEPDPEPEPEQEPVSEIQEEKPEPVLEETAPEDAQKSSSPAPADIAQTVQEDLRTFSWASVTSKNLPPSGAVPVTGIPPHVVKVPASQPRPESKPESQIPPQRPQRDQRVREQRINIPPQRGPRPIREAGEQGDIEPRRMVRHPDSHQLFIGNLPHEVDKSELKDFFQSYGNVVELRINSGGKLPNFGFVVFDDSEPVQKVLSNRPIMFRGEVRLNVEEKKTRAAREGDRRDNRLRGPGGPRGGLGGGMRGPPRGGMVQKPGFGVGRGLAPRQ
Method: RNA Bind-n-Seq
Form: RNA
Sample: in vitro
Tested at: 200 nM
Notes: whole 134-nt RNA, ends assumed
With: 150 mM KCl
Relative to: input library
Reading: higher = stronger binding
Endpoint: log2 enrichment
Shared flanks, not repeated: GGGAGUUCUACAGUCCGACGAUC … UGGAAUUCUCGGGUGUCAAGG
Oligonucleotide = UUGUGGAAAGGAGGAGAACCCCUGCUGAAAUUCGAGAGGAGUUUGAGCGGCUGCAGAGAGAGAGAGAAGAGAGGAGAUUGCAGCAGCGAA; result = -0.264
Oligonucleotide = ACCAUGCAGGUGGGCAUCUUUGGGAAGUGGGGCAAGGGGGGGAUAGGGAGGGGGGUAACACUUUGGGAACAGGUGGUCCCAGGUCGGUUC; result = 1.58
Oligonucleotide = UCAAGUCCUGUGCUACACAUCGUAUGUACCGAAUCGGGCCCGGGCCCGGCCCGGAAAGUAUUAUGUUACGCCGUUCGGAUCUGCACUUCC; result = -0.824
Oligonucleotide = GUCCUGUGCUACACAUCGUAUGUACCGAAUCGGGUUUUUUUGGGAAAAAAAGGGAGGGAAAGUAUUAUGUUACGCCGUUCGGAUCUGCAC; result = -0.117
Oligonucleotide = AAGUCCUGUGCUACACAUCGUAUGUACCGAAUCGGGUUUUGGGUUUUGGUUUUGGGAAAGUAUUAUGUUACGCCGUUCGGAUCUGCACUU; result = -0.907
Oligonucleotide = CCUCAAGUCCUGUGCUACACAUCGUAUGUACCGAAUCGGAAGGGAAGGGAAGGAAAGUAUUAUGUUACGCCGUUCGGAUCUGCACUUCCA; result = -0.499
Oligonucleotide = GUCCUGUGCUACACAUCGUAUGUACCGAAUCGGAAAAAAGGGGAAAAAAGGAAAAAAGGAAAGUAUUAUGUUACGCCGUUCGGAUCUGCA; result = -0.761
Oligonucleotide = GCGGACCGAGAAAGUCGUUACGAGGAAGAAGAAGAACAAAGUCGAAGUAUGAGCCGGAAGAGGAAGGCAUCUGUGCACAGUUCGGGCCGU; result = 0.515
Oligonucleotide = GUCCUGUGCUACACAUCGUAUGUACCGAAUCGGGGAAAGGGGUUUGGGGUUUUUGGGGAAAGUAUUAUGUUACGCCGUUCGGAUCUGCAC; result = 0.648

Block 3
Target: Sal-like protein 4, full length isoform A (SALL4, Homo sapiens, UniProt Q9UJQ4, residues 1-1053)
Sequence of UniProt Q9UJQ4 (whole entry, looked up): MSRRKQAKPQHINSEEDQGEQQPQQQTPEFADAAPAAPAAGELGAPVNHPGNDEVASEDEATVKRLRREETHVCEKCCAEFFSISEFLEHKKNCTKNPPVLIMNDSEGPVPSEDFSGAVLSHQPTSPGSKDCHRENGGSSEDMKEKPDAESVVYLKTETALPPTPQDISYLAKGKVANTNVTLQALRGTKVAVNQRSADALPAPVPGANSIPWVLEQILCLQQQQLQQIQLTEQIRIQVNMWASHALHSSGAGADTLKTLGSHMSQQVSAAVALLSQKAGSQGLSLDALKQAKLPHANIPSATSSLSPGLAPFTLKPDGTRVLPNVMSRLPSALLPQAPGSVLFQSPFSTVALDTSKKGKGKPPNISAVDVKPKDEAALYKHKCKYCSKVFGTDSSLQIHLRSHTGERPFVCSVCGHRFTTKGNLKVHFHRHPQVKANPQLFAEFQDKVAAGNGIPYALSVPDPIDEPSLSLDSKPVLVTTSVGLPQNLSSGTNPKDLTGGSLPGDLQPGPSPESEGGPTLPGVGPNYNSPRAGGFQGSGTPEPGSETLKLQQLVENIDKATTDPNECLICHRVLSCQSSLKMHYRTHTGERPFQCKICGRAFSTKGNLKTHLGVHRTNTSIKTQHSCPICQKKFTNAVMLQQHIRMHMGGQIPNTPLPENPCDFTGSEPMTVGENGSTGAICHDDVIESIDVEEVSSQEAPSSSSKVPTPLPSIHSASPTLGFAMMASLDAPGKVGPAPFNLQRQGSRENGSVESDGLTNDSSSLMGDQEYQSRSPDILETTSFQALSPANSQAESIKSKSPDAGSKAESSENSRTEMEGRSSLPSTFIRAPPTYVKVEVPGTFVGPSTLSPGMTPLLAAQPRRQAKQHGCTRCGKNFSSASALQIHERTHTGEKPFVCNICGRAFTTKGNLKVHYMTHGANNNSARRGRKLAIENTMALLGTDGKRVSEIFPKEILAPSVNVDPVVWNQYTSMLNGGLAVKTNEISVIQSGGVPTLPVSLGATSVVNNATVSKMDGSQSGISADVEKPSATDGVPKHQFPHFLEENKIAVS
Method: universal PBM
Form: double-stranded DNA, one strand shown
Sample: in vitro
Tested at: 600 nM
Notes: 8-mer, flanks averaged, mean of replicates
Reading: higher = stronger binding
Endpoint: E-score
Oligonucleotide = GCCTTCAC; result = -0.074
Oligonucleotide = CAAAACCA; result = 0.211
Oligonucleotide = AGAAATAG; result = 0.256
Oligonucleotide = GCCAAGCC; result = -0.267
Oligonucleotide = CCTCAGAC; result = -0.115
Oligonucleotide = TCAGACCA; result = 0.0585
Oligonucleotide = CTAGAGGA; result = -0.0947
Oligonucleotide = GGTTCAAA; result = 0.0602
Oligonucleotide = ACCACAGT; result = -0.0395
Oligonucleotide = ACATCGTG; result = -0.0704
Oligonucleotide = ACCGTGAT; result = 0.106
Oligonucleotide = CGAAACAG; result = -0.0886
Oligonucleotide = CGCGATCC; result = -0.235
Oligonucleotide = AGACGAGG; result = -0.224
Oligonucleotide = GAGGGGGC; result = -0.405
Oligonucleotide = AACACCGA; result = -0.0691
Oligonucleotide = CAGTTTCC; result = -0.0795
Oligonucleotide = AGAGCAGA; result = 0.115
Oligonucleotide = GGGTATAA; result = 0.15
Oligonucleotide = GAAGGTGC; result = -0.215
Oligonucleotide = GGATGCAA; result = 0.107

Block 4
Target: Histone acetyltransferase KAT6A, winged helix 2, GST fusion (KAT6A, Homo sapiens, UniProt Q92794, residues 85-181)
Method: protein binding microarray
Form: double-stranded DNA, one strand shown
Sample: in vitro
Tested at: not given
Notes: 8-mer, flanks averaged, mean of 2 arrays, mostly near background
Relative to: not given
Reading: higher = stronger binding
Endpoint: E-score
Construct (chain): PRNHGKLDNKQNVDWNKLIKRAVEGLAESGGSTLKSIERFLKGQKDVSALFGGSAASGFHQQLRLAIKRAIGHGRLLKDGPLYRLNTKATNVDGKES
Oligonucleotide = CACAGAGA; result = -0.0652
Oligonucleotide = GGTCTCCA; result = 0.00154
Oligonucleotide = AGTCGGTG; result = -0.0284
Oligonucleotide = ACTCCTCA; result = -0.205
Oligonucleotide = GTTTCGGA; result = 0.0828
Oligonucleotide = AAGTAGTC; result = -0.0998
Oligonucleotide = ACTGAACT; result = -0.17
Oligonucleotide = CTGGCTGA; result = -0.0134
Oligonucleotide = GTGGCATA; result = -0.0586
Oligonucleotide = CCTGGGAA; result = -0.0391
Oligonucleotide = CGGAGACA; result = 0.224
Oligonucleotide = GCGATCTA; result = 0.0234
Oligonucleotide = AGGCAAGG; result = -0.0566
Oligonucleotide = TCTCACCA; result = 0.0679
Oligonucleotide = CCAACTTA; result = -0.0792
Oligonucleotide = GCAAGGGC; result = -0.0358
Oligonucleotide = AGAAGCTA; result = 0.0214
Oligonucleotide = ATTCCGGA; result = 0.061
Oligonucleotide = GATGGTTA; result = -0.0803
Oligonucleotide = GGCGAGAC; result = 0.0214
Oligonucleotide = AGGGGGGA; result = -0.0246
Oligonucleotide = AACGGCTA; result = -0.0784
Oligonucleotide = ACGCACTC; result = 0.00912
Oligonucleotide = CATTCTGC; result = -0.0497
Oligonucleotide = TGTGCTAA; result = 0.217

A few entries again (block 4):
Oligonucleotide = GTTTCGGA; result = 0.0828
Oligonucleotide = GGTCTCCA; result = 0.00154
Oligonucleotide = GCGATCTA; result = 0.0234
Oligonucleotide = GATGGTTA; result = -0.0803
